Assay results of several laboratories.
Parts stem from different laboratories: compare values within a part only. Several values in a cell are separate wells, animals, samples, runs or records.
Sequence of UniProt Q05655 (whole entry, looked up): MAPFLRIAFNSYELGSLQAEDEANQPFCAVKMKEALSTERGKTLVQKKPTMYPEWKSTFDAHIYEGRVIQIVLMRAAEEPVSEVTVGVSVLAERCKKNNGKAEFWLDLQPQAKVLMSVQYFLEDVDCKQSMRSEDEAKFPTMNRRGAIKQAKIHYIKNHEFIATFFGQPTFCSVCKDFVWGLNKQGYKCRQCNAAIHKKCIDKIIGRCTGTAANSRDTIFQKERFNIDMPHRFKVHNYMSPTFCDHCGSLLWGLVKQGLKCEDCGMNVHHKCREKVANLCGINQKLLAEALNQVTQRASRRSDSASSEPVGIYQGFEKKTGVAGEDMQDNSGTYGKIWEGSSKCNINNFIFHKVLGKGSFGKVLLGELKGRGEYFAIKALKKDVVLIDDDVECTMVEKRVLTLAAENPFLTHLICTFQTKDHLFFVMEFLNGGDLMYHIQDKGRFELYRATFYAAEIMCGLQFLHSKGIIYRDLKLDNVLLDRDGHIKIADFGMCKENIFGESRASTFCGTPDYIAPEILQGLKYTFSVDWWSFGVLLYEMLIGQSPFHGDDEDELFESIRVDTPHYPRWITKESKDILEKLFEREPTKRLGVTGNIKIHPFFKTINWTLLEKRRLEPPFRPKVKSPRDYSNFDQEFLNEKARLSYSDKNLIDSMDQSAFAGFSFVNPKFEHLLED
Sequence of UniProt Q08345 (whole entry, looked up): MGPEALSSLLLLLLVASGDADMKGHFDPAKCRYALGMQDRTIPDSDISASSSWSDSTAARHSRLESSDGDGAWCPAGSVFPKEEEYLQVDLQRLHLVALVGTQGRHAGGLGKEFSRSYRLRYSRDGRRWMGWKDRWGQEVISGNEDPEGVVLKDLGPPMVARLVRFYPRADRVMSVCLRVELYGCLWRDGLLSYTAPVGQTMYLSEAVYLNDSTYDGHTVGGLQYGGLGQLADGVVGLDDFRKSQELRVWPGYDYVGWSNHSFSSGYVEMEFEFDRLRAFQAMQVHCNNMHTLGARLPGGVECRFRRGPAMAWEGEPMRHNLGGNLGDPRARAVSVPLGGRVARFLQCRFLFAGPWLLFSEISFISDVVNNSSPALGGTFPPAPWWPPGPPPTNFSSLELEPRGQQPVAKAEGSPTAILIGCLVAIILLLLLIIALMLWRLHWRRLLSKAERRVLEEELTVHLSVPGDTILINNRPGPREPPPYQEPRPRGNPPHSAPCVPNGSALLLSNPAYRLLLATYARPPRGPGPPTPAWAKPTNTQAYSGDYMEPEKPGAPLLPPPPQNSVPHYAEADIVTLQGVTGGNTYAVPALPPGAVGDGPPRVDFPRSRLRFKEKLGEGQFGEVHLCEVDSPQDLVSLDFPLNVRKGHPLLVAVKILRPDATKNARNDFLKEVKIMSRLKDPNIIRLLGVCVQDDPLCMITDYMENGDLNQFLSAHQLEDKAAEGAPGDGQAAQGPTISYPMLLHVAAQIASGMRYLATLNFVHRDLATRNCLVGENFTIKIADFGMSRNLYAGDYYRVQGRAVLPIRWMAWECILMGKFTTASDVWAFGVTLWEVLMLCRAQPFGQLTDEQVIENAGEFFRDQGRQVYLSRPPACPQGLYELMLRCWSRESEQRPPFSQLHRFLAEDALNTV
Sequence of UniProt O15264 (whole entry, looked up): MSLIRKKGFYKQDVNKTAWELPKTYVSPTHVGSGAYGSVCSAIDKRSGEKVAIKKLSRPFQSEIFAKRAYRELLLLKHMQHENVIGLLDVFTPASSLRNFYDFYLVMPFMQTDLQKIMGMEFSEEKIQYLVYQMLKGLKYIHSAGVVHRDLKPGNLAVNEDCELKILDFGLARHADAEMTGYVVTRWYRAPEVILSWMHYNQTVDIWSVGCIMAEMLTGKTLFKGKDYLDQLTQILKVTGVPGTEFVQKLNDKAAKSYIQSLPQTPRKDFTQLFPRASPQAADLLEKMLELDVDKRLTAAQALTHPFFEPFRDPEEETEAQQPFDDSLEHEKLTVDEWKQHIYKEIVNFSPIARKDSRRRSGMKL
Sequence of UniProt P41743 (whole entry, looked up): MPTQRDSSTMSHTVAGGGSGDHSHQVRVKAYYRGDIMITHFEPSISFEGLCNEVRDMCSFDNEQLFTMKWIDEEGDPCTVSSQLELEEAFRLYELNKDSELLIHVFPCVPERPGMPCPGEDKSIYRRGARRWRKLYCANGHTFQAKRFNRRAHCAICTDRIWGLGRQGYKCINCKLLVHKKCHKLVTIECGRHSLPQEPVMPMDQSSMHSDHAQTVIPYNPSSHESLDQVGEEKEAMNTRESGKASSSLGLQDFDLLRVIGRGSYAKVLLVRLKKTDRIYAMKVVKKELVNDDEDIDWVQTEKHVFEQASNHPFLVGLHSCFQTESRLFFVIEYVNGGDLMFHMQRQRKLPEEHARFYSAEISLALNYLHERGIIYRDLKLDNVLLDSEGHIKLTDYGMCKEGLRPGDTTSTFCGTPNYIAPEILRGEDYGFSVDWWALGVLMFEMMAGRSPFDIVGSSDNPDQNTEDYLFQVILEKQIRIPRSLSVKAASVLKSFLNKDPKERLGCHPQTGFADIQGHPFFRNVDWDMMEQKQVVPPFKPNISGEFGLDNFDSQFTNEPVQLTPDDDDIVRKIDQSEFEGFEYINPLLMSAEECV
Sequence of UniProt Q06187 (whole entry, looked up): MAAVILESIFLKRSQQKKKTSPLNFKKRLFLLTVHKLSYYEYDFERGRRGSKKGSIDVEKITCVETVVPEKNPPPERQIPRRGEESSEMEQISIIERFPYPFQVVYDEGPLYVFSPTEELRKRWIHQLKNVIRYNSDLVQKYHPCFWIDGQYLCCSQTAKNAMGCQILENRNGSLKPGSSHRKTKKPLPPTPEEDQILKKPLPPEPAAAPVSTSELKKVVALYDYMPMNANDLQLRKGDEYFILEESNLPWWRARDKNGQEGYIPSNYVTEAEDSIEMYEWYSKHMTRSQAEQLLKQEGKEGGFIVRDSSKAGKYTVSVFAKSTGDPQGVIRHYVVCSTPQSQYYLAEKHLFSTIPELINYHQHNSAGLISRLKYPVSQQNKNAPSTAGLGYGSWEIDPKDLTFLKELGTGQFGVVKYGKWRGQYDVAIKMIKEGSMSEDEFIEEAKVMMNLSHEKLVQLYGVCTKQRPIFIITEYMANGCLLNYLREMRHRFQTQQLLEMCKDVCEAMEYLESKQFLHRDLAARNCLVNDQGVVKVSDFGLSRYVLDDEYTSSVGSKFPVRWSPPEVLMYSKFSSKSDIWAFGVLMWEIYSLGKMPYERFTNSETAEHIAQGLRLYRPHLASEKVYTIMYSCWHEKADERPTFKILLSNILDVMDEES
Sequence of UniProt Q9NWZ3 (whole entry, looked up): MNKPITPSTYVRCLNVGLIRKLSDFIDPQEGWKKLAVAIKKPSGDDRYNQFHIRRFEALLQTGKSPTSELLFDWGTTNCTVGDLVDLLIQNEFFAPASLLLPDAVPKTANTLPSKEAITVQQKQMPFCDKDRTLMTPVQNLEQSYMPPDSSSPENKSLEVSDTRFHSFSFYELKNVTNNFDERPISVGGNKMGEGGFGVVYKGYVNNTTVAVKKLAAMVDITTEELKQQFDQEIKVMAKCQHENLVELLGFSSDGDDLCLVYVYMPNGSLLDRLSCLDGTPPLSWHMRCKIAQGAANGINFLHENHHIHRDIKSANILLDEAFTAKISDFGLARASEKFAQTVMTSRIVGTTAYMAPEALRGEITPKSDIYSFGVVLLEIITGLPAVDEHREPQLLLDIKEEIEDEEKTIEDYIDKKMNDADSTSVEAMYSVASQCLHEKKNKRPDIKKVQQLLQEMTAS
Sequence of UniProt P07948 (whole entry, looked up): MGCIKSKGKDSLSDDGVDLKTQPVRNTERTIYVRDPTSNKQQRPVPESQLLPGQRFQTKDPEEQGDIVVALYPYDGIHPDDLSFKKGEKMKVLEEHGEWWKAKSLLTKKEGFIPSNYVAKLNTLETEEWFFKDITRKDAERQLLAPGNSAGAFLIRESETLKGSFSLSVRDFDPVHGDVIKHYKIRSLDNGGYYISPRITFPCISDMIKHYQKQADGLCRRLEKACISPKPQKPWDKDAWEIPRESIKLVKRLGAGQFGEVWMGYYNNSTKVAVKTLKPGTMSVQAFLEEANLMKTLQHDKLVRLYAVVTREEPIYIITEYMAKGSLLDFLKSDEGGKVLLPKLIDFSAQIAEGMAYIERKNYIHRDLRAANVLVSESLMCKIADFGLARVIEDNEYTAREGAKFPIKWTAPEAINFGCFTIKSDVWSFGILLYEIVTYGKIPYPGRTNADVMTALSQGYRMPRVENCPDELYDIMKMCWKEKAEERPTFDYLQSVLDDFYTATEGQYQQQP
Sequence of UniProt P07947 (whole entry, looked up): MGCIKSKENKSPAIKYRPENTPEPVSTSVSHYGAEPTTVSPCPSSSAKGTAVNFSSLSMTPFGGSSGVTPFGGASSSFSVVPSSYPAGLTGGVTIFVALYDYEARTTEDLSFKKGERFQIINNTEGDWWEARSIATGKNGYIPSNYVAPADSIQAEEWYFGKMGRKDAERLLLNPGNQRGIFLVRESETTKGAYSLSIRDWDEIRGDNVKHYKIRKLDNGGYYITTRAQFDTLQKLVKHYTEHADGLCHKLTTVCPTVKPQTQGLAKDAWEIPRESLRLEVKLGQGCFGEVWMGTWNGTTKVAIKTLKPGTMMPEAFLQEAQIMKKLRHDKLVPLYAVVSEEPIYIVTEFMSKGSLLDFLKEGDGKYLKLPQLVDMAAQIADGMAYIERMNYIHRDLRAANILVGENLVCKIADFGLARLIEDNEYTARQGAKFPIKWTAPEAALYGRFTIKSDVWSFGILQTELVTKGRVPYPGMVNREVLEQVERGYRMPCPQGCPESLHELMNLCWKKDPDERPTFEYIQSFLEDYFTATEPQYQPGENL

Sample 1
SMILES: COc1cccc(-c2cc(=O)c3ccccc3o2)c1N
Effect on: enzyme activity
Mode: inhibitor
Concentration: 0.5 µM
Baseline: control
| target | remaining activity [%] |
| --- | --- |
| Protein kinase C iota type (PRKCI, Homo sapiens, UniProt P41743) | 97.3 |
| Leucine-rich repeat serine/threonine-protein kinase 2 (LRRK2, Homo sapiens, UniProt Q5S007) | 101 |
| Casein kinase II subunit alpha (CSNK2A1, Homo sapiens, UniProt P68400) | 94.9 |
| Tyrosine-protein kinase Lyn (LYN, Homo sapiens, UniProt P07948) | 94.6 |
| Interleukin-1 receptor-associated kinase 4 (IRAK4, Homo sapiens, UniProt Q9NWZ3) | 86.4 |
| cGMP-dependent protein kinase 1 (PRKG1, Homo sapiens, UniProt Q13976) | 111 |
| Tyrosine-protein kinase BTK (BTK, Homo sapiens, UniProt Q06187) | 83.7 |
| Mitogen-activated protein kinase 13 (MAPK13, Homo sapiens, UniProt O15264) | 99.8 |
| Protein kinase C delta type (PRKCD, Homo sapiens, UniProt Q05655) | 106 |
| Ephrin type-A receptor 5 (EPHA5, Homo sapiens, UniProt P54756) | 97.9 |
| Serine/threonine-protein kinase WNK2 (WNK2, Homo sapiens, UniProt Q9Y3S1) | 122 |

Sample 2
Compound: Nc1cnc(N2CCc3cc(S(=O)(=O)Nc4c(F)cc(Cl)cc4F)cc(N4CCCC4=O)c32)nc1
Effect on: cell-free assay
Technique: competition with immobilised ligand
Concentration: 1 µM
| target | remaining binding |
| --- | --- |
| Serine/threonine-protein kinase BRSK1 (BRSK1, Homo sapiens, UniProt Q8TDC3) | 100% |
| Tyrosine-protein kinase Srms (SRMS, Homo sapiens, UniProt Q9H3Y6) | 88% |
| Epithelial discoidin domain-containing receptor 1 (DDR1, Homo sapiens, UniProt Q08345) | 100% |
| SRSF protein kinase 2 (SRPK2, Homo sapiens, UniProt P78362) | 100% |
| Protein kinase C delta type (PRKCD, Homo sapiens, UniProt Q05655) | 86% |
| Serine/threonine-protein kinase Nek10 (NEK10, Homo sapiens, UniProt Q6ZWH5) | 100% |
| Ribosomal protein S6 kinase alpha-4, C-terminal kinase domain (RPS6KA4, Homo sapiens, UniProt O75676) | 96% |
| Tyrosine-protein kinase Yes (YES1, Homo sapiens, UniProt P07947) | 100% |

Sample 3
Structure (SMILES): Cc1cc2c(C(N)=O)c(N)n(-c3c(C)ccc(O)c3C)c2nc1C
| cell line | test | conditions | inhibition |
| --- | --- | --- | --- |
| HCC1569 | automated immunoblotting, item: CDK1 phospho-Thr14 | concentration not given, 8 h after washout | 16.8% |
| LN-229 | cell proliferation | 41.15 nM | -7.95% and -15.9% and -12.8% |
| RKO | cell proliferation | 10000 nM | 100% |
| HCC1806 | cell proliferation | 10000 nM | 99.9% |
| NCI-H1568 | cell proliferation | 370.37 nM | 17.2% and 17.4% |
| NCI-H1648 | cell proliferation | 123.5 nM | -18.4% and -23.5% and -17.4% |

Mixed results
| Structure (SMILES) | target | test | system | conditions | endpoint | result |
| --- | --- | --- | --- | --- | --- | --- |
| CN1CCN(CCOc2cc(OC3CCOCC3)c3c(Nc4c(Cl)ccc5c4OCO5)ncnc3c2)CC1 | Activin receptor type-2B (ACVR2B, Homo sapiens, UniProt Q13705) | Hsp90 client interaction, inhibitor, LUMIER | human cells | medium client | EC50 | 5 µM |

Repeated from above (sample 3):
| cell line | test | conditions | inhibition |
| --- | --- | --- | --- |
| HCC1569 | automated immunoblotting, item: CDK1 phospho-Thr14 | concentration not given, 8 h after washout | 16.8% |
| LN-229 | cell proliferation | 41.15 nM | -7.95% and -15.9% and -12.8% |
